Experimental data gathered from unrelated publications.
Compare with care: the assays were run in different laboratories. Numbers after ± are the reported error.

C=Cc1cc(O)cc2nc(-c3ccc(O)c([76Br])c3)oc12 — tissue uptake (female C57BL/6 mouse, ovaries; 6 h, high dose): 0.07 ± 0.02 %ID/g
O=C(O)CC[C@H](NC(=O)O[C@@H](CCCCNC(=O)c1ccc([18F])cc1)C(=O)O)C(=O)O — tissue uptake (mouse, PC-3 PIP/flu xenografts, large intestine; 180 min): 0.16 ± 0.05 %ID/g
N=C(N)NCc1ccc(C(=O)NCCCC[C@H](NC(=O)N[C@@H](CCC(=O)O)C(=O)O)C(=O)O)cc1[131I] — tissue uptake (SCID mouse, PC-3 xenografts, thyroid; 4 h): 0.2 ± 0.1 %ID/g
COc1cc(C(=O)NCCOCCOCCOCCNC(=O)c2ccc([18F])nc2)ccc1NC(=O)C1NC(CC(C)(C)C)C(C#N)(c2ccc(Cl)cc2F)C1c1cccc(Cl)c1F (stereo not shown) — tissue uptake (athymic male mice, SJSA-1 xenograft, bladder; 2 h): 1.15 ± 0.63 %ID/g
N=C(N)NCc1ccc(C(=O)NCCCC[C@H](NC(=O)CCCCCCC(=O)NCCCC[C@H](NC(=O)N[C@@H](CCC(=O)O)C(=O)O)C(=O)O)C(=O)O)cc1[211At] — tissue uptake (SCID mouse, PC-3 xenografts, lungs; 1 h): 2.24 ± 0.51 %ID/g
N=C(N)NCCC[C@@H]1NC(=O)[C@H](CCCCNC(=O)CC[C@H](NC(=O)CCOCCOCCOCCOCCNC(=O)CC[C@H](NC(=O)CN2CCN(CC(=O)O)CCN(CC(=O)O)CCN(CC(=O)O)CC2)C(=O)NCCOCCOCCOCCOCCC(=O)N[C@@H](CCC(=O)NCCCC[C@@H]2NC(=O)[C@@H](Cc3ccccc3)NC(=O)[C@H](CC(=O)O)NC(=O)CNC(=O)[C@H](CCCNC(=N)N)NC2=O)C(=O)NCCCC[C@@H]2NC(=O)[C@@H](Cc3ccccc3)NC(=O)[C@H](CC(=O)O)NC(=O)CNC(=O)[C@H](CCCNC(=N)N)NC2=O)C(=O)NCCCC[C@@H]2NC(=O)[C@@H](Cc3ccccc3)NC(=O)[C@H](CC(=O)O)NC(=O)CNC(=O)[C@H](CCCNC(=N)N)NC2=O)NC(=O)[C@@H](Cc2ccccc2)NC(=O)[C@H](CC(=O)O)NC(=O)CNC1=O [indium-111 labelled] — tissue uptake (female athymic nude mice, eyes; intravenous, 3 µCi, 4 h, U-87 MG glioma xenograft): 0.78 ± 0.31 %ID/g
CCNc1cc2[o+]c3cc(NCC)c(C)cc3c(-c3ccccc3C(=O)OCCOCC[18F])c2cc1C — tissue uptake (rat, liver; 15 min): 1.01 ± 0.14 %ID/g
CN[C@](C)(C[18F])C(=O)O — tissue uptake (SCID mouse SK-OV-3 xenograft, brain; 60 min, post injection): 0.3 ± 0.04 %ID/g
COc1cc2ncnc(Oc3cccc(N[11C](=O)Nc4cc(C(C)(C)C(F)(F)F)on4)c3)c2cc1OC — tissue uptake (Balb/c nude mouse, female, A375 melanoma xenograft, lung; 6.6 MBq, 30 min): 3.45 ± 0.2 %ID/g
O=C(c1ccc(F)cc1)C1CCN(C2Cc3c(cccc3OCC[18F])CC2O)CC1 (single isomer, unassigned; (-)) — tissue uptake (Sprague-Dawley rat, male, liver; intravenous, dose not given, 30 min): 0.523 ± 0.044 %ID/g
Cc1nc([C@H](NC(=O)c2ccc(-c3ccc(Cl)cc3)[nH]2)[C@H]2CCCCN2)sc1CO — CC50 (MT2; cell growth or viability, XTT): ~20 µM
CN(C)CC1CCCCC1(O)c1cccc(O)c1 (stereo not shown) — Papp A-to-B (Caco-2 TC7 monolayer; 50 µM, 3 h, apical pH 6.8, basolateral pH 7.4): 5.8 ± 1 ×10⁻⁶ cm/s
CCCC[C@H](NC(=O)CCOCCOCCNC(=O)CN1CCN(CC(=O)O)CCN(CC(=O)O)CCN(CC(=O)O)CC1)C(=O)N[C@H]1CC(=O)NCCCC[C@@H](C(N)=O)NC(=O)[C@H](Cc2c[nH]c3ccccc23)NC(=O)[C@H](CCCNC(=N)N)NC(=O)[C@@H](Cc2ccccc2)NC(=O)[C@H](Cc2c[nH]cn2)NC1=O [gallium-68 labelled] — tissue uptake (C57BL/6J mice male B16-F10 tumour, stomach; 1 h post injection, unblocked): 0.4 ± 0.2 %ID/g
O=C(O)CCC(NP(=O)(O)OCCC[C@@H](NC(=O)CCC(NC(=O)CCCCCNC(=O)c1ccc([18F])cc1)C(=O)O)C(=O)O)C(=O)O (stereo partly shown) — tracer uptake (CWR22Rv1 tumour model; host not given, muscle; intravenous, 1 h, tumour-bearing): 0.12 %ID/g
CC[C@H](C)[C@H](NC(=O)[C@@H](NC(=O)[C@H](CC(=O)O)NC(C)=O)[C@@H](C)O)C(=O)N[C@@H](CCCNC(=N)N)C(=O)N[C@@H](CC(C)C)C(=O)N[C@@H](CC(C)C)C(=O)N[C@@H](Cc1ccccc1)C(=O)N[C@@H](CCC(N)=O)C(=O)N[C@@H](CC(C)C)C(=O)N[C@@H](CCSC)C(=O)N[C@@H](CCCNC(=N)N)C(=O)N1CCC[C@H]1C(=O)N1CCC[C@H]1C(=O)N[C@@H](CC(N)=O)C(=O)N[C@@H](CCSC)C(=O)N[C@H](C(=O)N1CCC[C@H]1C(=O)N[C@@H](C)C(=O)N[C@H](C(=O)N[C@@H](CC(N)=O)C(=O)N[C@@H](C)C(N)=O)C(C)C)[C@@H](C)O — antigen-experienced T cells (measured: HA-02 tetramer; tetramer+ CD4 T cells, PBMC, healthy adults, HLA-DRB1*0101; dose not given, CD62L−CD45RA+/− or CD62L+CD45RA−): 85.7%
N=C(N)NCc1ccc(C(=O)NCCCC[C@H](NC(=O)N[C@@H](CCC(=O)O)C(=O)O)C(=O)O)cc1[211At] — tissue uptake (SCID mouse, PC-3 xenografts, bone; 14 h): 0.14 ± 0.07 %ID/g

For quick reference, copied from above:
N=C(N)NCc1ccc(C(=O)NCCCC[C@H](NC(=O)N[C@@H](CCC(=O)O)C(=O)O)C(=O)O)cc1[211At] — tissue uptake (SCID mouse, PC-3 xenografts, bone; 14 h): 0.14 ± 0.07 %ID/g
